Measured values gathered from unrelated publications.
A part holds a random share of what one study measured. Changes are numbered by the printed parent chain.

Series 1 — target: CEBPE, bZIP domain (human); technique: DHFR protein complementation; sample: yeast; baseline: wild-type JUN-FOS pair; direction: higher = stronger binding
Notes: single substitutions, most at no-binding floor
Starting sequence: JUN, bZIP domain (human); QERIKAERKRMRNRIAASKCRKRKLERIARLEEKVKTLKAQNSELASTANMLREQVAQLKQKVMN; partner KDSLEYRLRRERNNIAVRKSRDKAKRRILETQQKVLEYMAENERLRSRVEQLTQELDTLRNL
| Variant | binding fitness [natural log] |
| --- | --- |
| T48Q | -0.918 |
| A49Y | -1.01 |
| L38Y | -1.32 |
| L45V | -1.49 |
| L31M | -1.21 |
| Q41M | -1.14 |
| K36I | -1.35 |
| L45E | -1.46 |
| M51C | -1.31 |
| I28G | -1.31 |
| Q55S | -1.41 |
| K36H | -1.26 |
| A49M | -1.03 |
| S47R | -0.912 |
| A46G | -1.39 |
| E33D | -1.11 |
| E44S | -1.33 |
| L38K | -1.6 |
| E33W | -1.35 |
| L52R | -1.46 |

Series 2 — target: CCND2, cyclin fold, Cln2 fusion (human); technique: yeast growth competition, sequencing; sample: yeast; notes: strong parent motif; baseline: not given; direction: higher = stronger binding
Starting sequence: E2F1 docking peptide (human); PPVKRRLDFETDH; partner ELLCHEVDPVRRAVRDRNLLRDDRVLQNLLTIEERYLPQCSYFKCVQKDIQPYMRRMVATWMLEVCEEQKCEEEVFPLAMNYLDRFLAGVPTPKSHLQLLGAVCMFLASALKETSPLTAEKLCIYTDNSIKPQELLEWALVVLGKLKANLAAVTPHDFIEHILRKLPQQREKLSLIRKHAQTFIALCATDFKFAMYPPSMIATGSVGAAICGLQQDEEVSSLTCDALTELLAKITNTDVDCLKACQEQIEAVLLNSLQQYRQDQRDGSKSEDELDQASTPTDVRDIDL
| Variant | normalised enrichment score |
| --- | --- |
| E10I | 0.769 |
| R5Q | 0.0662 |
| D12K | 1.3 |
| P2E | 1.05 |
| D12T | 1.43 |
| L7R | 0.0381 |
| P2M | 0.874 |
| P2W | 0.67 |
| R6D | -0.117 |
| E10H | 1.19 |
| V3Y | 0.0702 |
| T11G | 2.01 |
| D12C | 1.76 |
| F9Q | 0.451 |

Series 3 — target: UBE2O UBC core domain (UniProt Q9C0C9); technique: yeast two-hybrid; sample: yeast; notes: mostly zero background; baseline: not given; direction: higher = stronger interaction
B1: TRIM15 RING domain (UniProt Q9C019); chain SLKVVHELPACTLCAGPLEDAVTIPCGHTFCRLCLPALSQMGAQSSGKILLCPLCQEEEQAETPMA
B2: UBE4A RING domain (UniProt Q14139); chain LQQQEEETYADACDEFLDPIMSTLMCDPVVLPSSRVTVDRSTIARHLLSDQTDPFNRSPLTMDQIRPNTELKEKIQRWLAERKQQKEQLE
B3: RNF149 RING domain (UniProt Q8NC42); chain EKGIDVDAENCAVCIENFKVKDIIRILPCKHIFHRICIDPWLLDHRTCPMCKLDVIKALGYW
B4: TRIM10 RING domain (UniProt Q9UDY6); chain SVTSLADEVNCPICQGTLREPVTIDCGHNFCRACLTRYCEIPGPDLEESPTCPLCKEPFRPGSFRP
B5: PEX2 RING domain (UniProt P28328); chain DNTLATSGKECALCGEWPTMPHTIGCEHIFCYFCAKSSFLFDVYFTCPKCGTEVHSLQPLK
B6: RNF43 RING domain (UniProt Q68DV7); chain SGSSCSSAPVCAICLEEFSEGQELRVISCLHEFHRNCVDPWLHQHRTCPLCMFNITEGDSFS
B7: RNF4 RING domain (UniProt P78317); chain TGLRPSGTVSCPICMDGYSEIVQNGRLIVSTECGHVFCSQCLRDSLKNANTCPTCRKKINHKRYHP
B8: TRIM35 RING domain (UniProt Q9UPQ4); chain PSRSFKEELLCAVCYDPFRDAVTLRCGHNFCRGCVSRCWEVQVSPTCPVCKDRASPADLRT
B9: PHF7 RING domain (UniProt Q9BWX1); chain IQHGHVGEESCILCCEDLSQQSVENIQSPCCSQAIYHRKCIQKYAHTSAKHFFKCPQCNNRKEFPQEML
B10: MSL2 RING domain (UniProt Q9HCI7); chain LLPYFRQSLSCCVCGHLLQDPIAPTNSTCQHYVCKTCKGKKMMMKPSCSWCKDYEQFEENKQ
B11: NSMCE1 RING domain (UniProt Q8WV22); chain RETYPDAVKICNICHSLLIQGQSCETCGIRMHLPCVAKYFQSNAEPRCPHCNDYWPHEIPKV
Residues (chain): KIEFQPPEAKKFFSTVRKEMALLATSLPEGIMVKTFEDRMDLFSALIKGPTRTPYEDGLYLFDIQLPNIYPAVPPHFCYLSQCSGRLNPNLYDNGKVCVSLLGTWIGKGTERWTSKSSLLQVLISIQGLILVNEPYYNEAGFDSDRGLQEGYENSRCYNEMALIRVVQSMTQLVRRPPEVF
| Sequence | lacZ reporter activity |
| --- | --- |
| B1 (TRIM15 RING domain) | 0 |
| QLQDEEDDSLCRICMDAVIDCVLLECGHMVTCTKCGKRMSECPICRQYVVRAVHVF (RNF34 RING domain (UniProt Q969K3)) | 0 |
| KIKDLNEHIVCCLCAGYFVDATTITECLHTFCKSCIVKYLQTSKYCPMCNIKIHETQPLL (PCGF1 RING domain (UniProt Q9BSM1)) | 0 |
| B2 (UBE4A RING domain) | 0 |
| B3 (RNF149 RING domain) | 0 |
| FLKKLEQSFMCVCCQELVYQPVTTECFHNVCKDCLQRSFKAQVFSCPACRHDLGQNYIMI (UHRF2 RING domain (UniProt Q96PU4)) | 0 |
| MANWVFCNRCFQPPHRTSCFSLTNCGHVYCDACLGKGKKNECLICKAPCRTVLLSK (RNF212 RING domain (UniProt Q495C1)) | 0 |
| B4 (TRIM10 RING domain) | 0 |
| ISNDSETLEECMVCSDMKRDTLFGPCGHIATCSLCSPRVKKCLICKEQVQSRTKIE (MIB1 RING domain (UniProt Q86YT6)) | 0 |
| B5 (PEX2 RING domain) | 0 |
| B6 (RNF43 RING domain) | 0 |
| B7 (RNF4 RING domain) | 0 |
| B8 (TRIM35 RING domain) | 0 |
| B9 (PHF7 RING domain) | 0 |
| B10 (MSL2 RING domain) | 0 |
| B11 (NSMCE1 RING domain) | 0 |

Series 4 — technique: protein binding microarray; molecule type: double-stranded DNA, one strand shown; sample: in vitro; concentration: not given; baseline: not given; direction: higher = stronger binding
Target: Histone acetyltransferase KAT6A, winged helix 2, GST fusion (KAT6A, Homo sapiens, UniProt Q92794, residues 85-181)
Notes: 8-mer, flanks averaged, mean of 2 arrays, mostly near background
Construct (chain): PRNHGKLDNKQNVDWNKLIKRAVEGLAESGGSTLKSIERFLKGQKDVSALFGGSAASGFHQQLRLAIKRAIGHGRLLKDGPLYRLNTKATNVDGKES
| Oligonucleotide | E-score |
| --- | --- |
| AACCGTCT | -0.0401 |
| ACTCTGAC | -0.112 |
| ACACCGCA | 0.129 |
| ACTCGAAG | -0.0293 |
| GTGATGTA | -0.186 |
| GAGATCCC | 0.195 |
| AAGGAAGG | -0.123 |
| ACATTATC | -0.0617 |
| AACCAGCG | 0.0954 |
| ACACCGCC | 0.159 |
| CGCCGACC | 0.211 |
| CCCAGTGA | -0.0775 |
| ACTGCGCT | -0.0121 |
| AATGTCGA | -0.0126 |
| ACGTAAAT | -0.121 |
| GAGGGTGC | -0.0533 |
| AAAAGGTG | -0.085 |
| AACCAGCA | -0.0246 |
| ATCTTACC | -0.0923 |
| AAATTTCC | 0.0056 |
| ACATCTGA | -0.157 |
| AGTCAGTC | -0.152 |
| GGTAAAAA | 0.0462 |
| AGAAAGAA | 0.0616 |
| CACACAAA | 0.221 |

Series 5 — technique: RNA Bind-n-Seq; molecule type: RNA; sample: in vitro; concentration: not given; notes: RNA with constant flanks, ends assumed; baseline: input RNA pool; direction: higher = stronger binding
Target: RING finger protein unkempt homolog, zinc fingers 1-6, GST-SBP tag (UNK, Homo sapiens, UniProt Q9C0B0, residues 30-357)
Residues (chain): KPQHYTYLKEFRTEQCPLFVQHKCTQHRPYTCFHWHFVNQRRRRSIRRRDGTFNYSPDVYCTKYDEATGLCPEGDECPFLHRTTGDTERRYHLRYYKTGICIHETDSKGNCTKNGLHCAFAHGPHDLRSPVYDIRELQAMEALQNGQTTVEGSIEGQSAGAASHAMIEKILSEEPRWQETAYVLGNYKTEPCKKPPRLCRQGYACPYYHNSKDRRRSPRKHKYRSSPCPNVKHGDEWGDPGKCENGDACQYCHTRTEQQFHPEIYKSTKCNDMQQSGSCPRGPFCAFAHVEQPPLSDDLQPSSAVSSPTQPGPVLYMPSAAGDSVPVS
| Oligonucleotide | bound/input enrichment |
| --- | --- |
| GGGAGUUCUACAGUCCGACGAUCCAUCAACAGUAUGUGCAACGUAUAGAGAAACAGUUUCUUUUGUAUGCCUACUGGACCGGCUCCGGAAUUUUGUCUUCUGUUGGGCUUGGAACAGGGCUGCACACCUUUCUGCUUUAUCUGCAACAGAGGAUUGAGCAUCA | 0.126 ratio |
| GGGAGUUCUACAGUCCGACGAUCAUUCAAAAGGCAGUGGCAGUUUCAUAGGACAGGUACAAGCAACAUCUUUUUUGGGUCCUACCGUUACAGGAUAACUUCUUCAAGAGUUUCUCCAGCCACAUCCUUUGUUUUUCUGAACCCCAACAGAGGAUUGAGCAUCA | 0.19 ratio |
| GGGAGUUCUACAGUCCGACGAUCUAUGAUGAAAAUAUUAACAUUUCUAGAUUAAAAGUAUGACUGAUCUUUCGUUAUCCACUGCCGCAAGGUGAAAGCACACACAAUCGAAAUCCAUAGAUAAUCAGUGUUUAGCCUUCUCCUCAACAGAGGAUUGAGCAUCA | 0.586 ratio |
| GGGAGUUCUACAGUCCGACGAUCGAGCAGAGAGUGGUGAGGCCAGCCACUGCCUGUGCGUGCAGUGCAGUGUUGGUAAGAGAAGCCUACCCCGGAGCUGGUGAUGAUGAAGGCUGGGCUGGGAAAGCAUUCUCUGUCCUGCUCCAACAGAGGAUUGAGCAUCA | 0.0829 ratio |
| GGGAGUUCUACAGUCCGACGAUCCAGGUCUAUGGAGUCGAGGUGCCUGCAGAGGGUGAGGCCGAGAAGCCUUGGUGGCAGGUAUUCCGUGAUGACCUUACCAAGCCAAUCAUUGACAAUAUUGUGUCUGAUCUCAUUCAGAUUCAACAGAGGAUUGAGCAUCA | 0.0862 ratio |
| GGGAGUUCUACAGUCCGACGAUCGAAAGCACUACCCUAAGCCAUGAAGAACUCCAUGCUUUGCUAACCAAGAUAACUGUUUUCUCUUUGCCGAAGUUUUGUUUUUGAAAUGUGUAUUUCUAAUUAUAUAAAAUAUUAAGAAUCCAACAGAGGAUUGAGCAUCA | 0.599 ratio |
| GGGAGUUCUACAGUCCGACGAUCAUGAUCCAACUCAAUGGAUGUCAGCCCAUGGAGAUCAAAGUGCUGGGUCCUUAUACCUUCCGUAUCUGUGACACUUCCAACUUCUCUGACUACAUCCGUGGAGGCAUCGUCAGUCAGGUCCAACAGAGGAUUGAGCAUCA | 0.0903 ratio |
| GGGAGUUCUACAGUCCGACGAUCCUUACCAAACACUUGCUGAAGUCAGUGUGUACUGAUAUCACUAACCUCAUUUUCAACUUCUCCGCUUCGGAUUUAAUGAUGGCAGUAGACGAUCCUGCAGCCAUUACAAGUGAAAUAAGACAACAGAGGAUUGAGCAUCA | 0.325 ratio |
| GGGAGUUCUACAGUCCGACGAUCGUUUCUCCAGAGGAAGCAAUCAAAUGUGAAGACAAAUUCACAAAAUCCAAAACUGUUUACCGCAUUCUUCGUCAUGUUGCUGAGGUGUUAGAAUACACCAAGGAUGAGCAGCUGGAAAGCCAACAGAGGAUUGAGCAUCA | 0.135 ratio |
| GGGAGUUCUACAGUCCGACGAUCCCUGUCAUUCACAACGGAAGCCAGGGCACGGGCACCAAUGGGUCGGAAAUCAGUGACCGCGAUUAUCAGGCAGAAUACCCCGAUGAAUAUCAUGGCGAGUACCCAGACGACUACCCUCGGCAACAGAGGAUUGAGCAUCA | 0.163 ratio |
| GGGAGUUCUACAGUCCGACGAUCGUAUUUGUCCCAUUUUUGUUUUUAAAUGUAUUUUUAUAAGAUGUAUACAUGUGUAUUUGUAACCGAUUUUUUGAUUAUAUAAUACUGAAACAUCUCUCAAUAUUAUGAAAAAUGUUAAAACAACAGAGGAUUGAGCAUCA | 0.29 ratio |

Repeated from above (series 3):
| Sequence | lacZ reporter activity |
| --- | --- |
| B3 (RNF149 RING domain) | 0 |
| FLKKLEQSFMCVCCQELVYQPVTTECFHNVCKDCLQRSFKAQVFSCPACRHDLGQNYIMI (UHRF2 RING domain (UniProt Q96PU4)) | 0 |
| MANWVFCNRCFQPPHRTSCFSLTNCGHVYCDACLGKGKKNECLICKAPCRTVLLSK (RNF212 RING domain (UniProt Q495C1)) | 0 |
| B4 (TRIM10 RING domain) | 0 |
| ISNDSETLEECMVCSDMKRDTLFGPCGHIATCSLCSPRVKKCLICKEQVQSRTKIE (MIB1 RING domain (UniProt Q86YT6)) | 0 |
| B5 (PEX2 RING domain) | 0 |
